Results gathered from unrelated publications.
Every numbered part comes from another study and shows a few of its results, in no order.

Block 1 — technique: RNA Bind-n-Seq; molecule type: RNA; medium: in vitro; concentration: not given; relative to: input RNA pool; reading: higher = stronger binding; measurement: bound/input enrichment
Target: RING finger protein unkempt homolog, zinc fingers 1-6, GST-SBP tag (UNK, Homo sapiens, UniProt Q9C0B0, residues 30-357)
Sequence of UniProt Q9C0B0 (30-357, looked up): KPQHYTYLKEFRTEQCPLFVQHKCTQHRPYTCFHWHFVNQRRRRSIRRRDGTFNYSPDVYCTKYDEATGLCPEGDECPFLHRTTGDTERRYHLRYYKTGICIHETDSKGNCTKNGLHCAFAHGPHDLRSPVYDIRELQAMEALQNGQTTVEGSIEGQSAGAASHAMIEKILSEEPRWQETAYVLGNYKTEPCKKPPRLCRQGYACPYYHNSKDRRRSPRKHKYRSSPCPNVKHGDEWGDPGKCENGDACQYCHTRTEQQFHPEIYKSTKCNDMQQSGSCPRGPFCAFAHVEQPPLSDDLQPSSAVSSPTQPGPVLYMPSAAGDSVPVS
Notes: RNA with constant flanks, human-mouse chimeric sites, ends assumed
Shared flanks, not repeated: GGGAGUUCUACAGUCCGACGAUC … CAACAGAGGAUUGAGCAUCA
Oligonucleotide = AACGUGGAACUAAGUUCCUUGGCCCGGCUUCCCAGCUUGAAUAAACUUCGAAAAUUGGAACUUAGUGACAAUAUAAUUUCUGGAGGCUUGGAAGUCCUGGCAGAGAAAUGUCCAAAUCUU; value = 0.514 ratio
Oligonucleotide = AGAUUCCCCCUCCUGAGACCUCCUCCGAAAUUGGCAUCUCUUACAGAUGCCUCAUCCCCUGUUAGCGUUUUGGUCUGGACCACCCAGCCUUGGACAAUUCCCGCCAACCAGGCAAUUUGC; value = 0.755 ratio
Oligonucleotide = AAAGAGUGGAUAGAGUGUGCACACGGGAUCGGUGGGACUCGGGCAGAAAAGGAGUGCAAGAUAGAGUUCGAUGACUUCGAAGAGUGCUUGCUUCGGUAGAAAACGAUGAGGCGAAUGCAU; value = 0.491 ratio
Oligonucleotide = ACUCAGAGAUCCACCUCAAUUGAAGUGGGGAGUAAAGGUGUGGCCACCACACCUAACUUCAUAGACAUAUAUUUUUUUUAAUAUGAAUCUUCCUGUUCGUCCAGGGAAGAAAGAUUUGUU; value = 26.7 ratio
Oligonucleotide = GAUAAGAAAAACUUGUUGGAGACCCGCUUGCAUGUCACUGGUAGAGACCUGAGGUGUCAAAUAGCUGAAACUUUCGGACUUCAAGAAAAUUACAUCAAGAUCGUAAUAAAUAAGAAACAG; value = 0.301 ratio
Oligonucleotide = CACACACUCUUCUGCGGCACCCUCAUUUUGCAGGCCCGGGCCUAUGUGGGACCCCGUGUCCUGGCAGUGGUGACCCGCACAGGGUUCUGCACGGCAAAAGGGGGCCUGGUGAGCUCCAUC; value = 0.137 ratio
Oligonucleotide = UUUCUACUGCAGCAAACGAUGCUAAGAAUUAAGGAUCCUAAGAAGUCCCUGGAUUUUUAUACGAGGGUUCUUGGACUGACCCUCCUGCAAAAAUGUGAUUUUCCCAUUAUGAAGUUCUCG; value = 0.274 ratio
Oligonucleotide = CACGUGUCUGCAGUACUUGAUGUGGACUACUCUCCCACUGGGAAGGAAUUUGUGUCUGCCAGCUUUGAUAAAUCUAUUAGAAUCUUUCCUGUGGACAAGAGCCGAAGCAGGGAGGUAUAU; value = 0.495 ratio
Oligonucleotide = AGAGAUAAGACAUCCAGGAACAUGCGAGGCUCCCGGAUGAAUGGGUUGCCUAGCCCCACUCAUAGUGCCCACUGUAGCUUCUACCGAACCAGAACCUUGCAGGCACUGAGUAAUGAGAAG; value = 0.12 ratio
Oligonucleotide = GCGGCAGAAUCAUGGUGGACAUAAUGCAGCUCCCCAAAGCGCGCGUCAACGCCAGCAUGUUACCACAGUAUAUCGACCGGCCCGUGUGCUUCGUGGGGAGGCUGGAAAAGAUUCAUCCCA; value = 0.138 ratio
Oligonucleotide = AAUGUUCUUAAUAUUUUUGAAUAAAUGAAGCUAAAAUUUUGCUUUCUGGUACAACACGCAUUAAUAAAAGGUUAAGUUUUGUUUUCCACUGAAGUACUAUUUAACAUCUCAGAAAAAAAC; value = 0.356 ratio

Block 2 — technique: RNA Bind-n-Seq; molecule type: RNA; medium: in vitro; concentration: 365 nM; relative to: no-protein control; reading: higher = stronger binding; measurement: RBNS enrichment (R)
Target: RNA binding protein fox-1 homolog 2, RRM domain, GST-SBP tag (RBFOX2, Homo sapiens, UniProt O43251-10, residues 100-194)
Notes: natural RNA segment, single round, ends assumed
Shared flanks, not repeated: GGGAGUUCUACAGUCCGACGAUC … UGGAAUUCUCGGGUGCCAA
Target sequence (chain): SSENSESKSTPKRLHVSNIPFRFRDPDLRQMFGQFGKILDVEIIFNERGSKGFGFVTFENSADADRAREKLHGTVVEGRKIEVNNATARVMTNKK
Oligonucleotide = CCUCAAACCAGCUAGUCCUGGACAAGAUGUCUCUUCAGUAUCUCUGCUAUUGGGUUCAGAUGUGUCUAGGGGAACAAAGAAAAAUUCAUUAACAAACAUUAGCUGCUCCA; value = 0.441
Oligonucleotide = GACCCUGCGGGCAUCUGACUGGUCUUCCAGCUCAGGAAAAAGAAUUUGAAAGAGGCUUAGCGUGAAGGGGAAUCAAAGAGGAGGUUGUGAUUUGGUCGAAGGUGCCUGGU; value = 1.63
Oligonucleotide = AGUUGAAGUACUAUGAAUACAACCUGCUAAUCUUGAUCCCCAAAUCUGAGCCCUUCAGUUUCAUAAUUGUUUUAUCCUGAACGUAGUUGUGACAUAGACAUUUCUCAAAA; value = 0.312
Oligonucleotide = GGCAGAGGUAUGCUCCUGCUGUAAUCAGGCAAAUGAGUUCAACUGGAUUUCUUUUGACAAUACUGUUGGUACCUAUUACUUGGGGGAGGACAUGUUGCAGAAGACCAGAU; value = 0.264
Oligonucleotide = UCCCCGGAAUUAUCAAACAGCCACCGGGUGACUUUCUGGCUUCCAGAUCCAUCUGCCUGAGACCCCCGAACUCCUCUCCUCCCAAGCAGAGGCGAGUGAGUGGCAUUAGC; value = 0.34
Oligonucleotide = AAAUCUACCAGCUCUUGGAUGAAGAUAGAACAGUGCUUUUCCAGAGUGGGAAGGAAGGGGUUGAGACGCGUGCUUUGAGAGCCUGUGAGGCUGCUCCGUCCUUGCCAGCU; value = 0.336
Oligonucleotide = GGCCAUGGCUGCAGAUGGAAUUGGAAAGUAAAAUAUUUGUGGCUGAGCCUCUUUAGUCUUCCCUGAAGCUGGCUUUCUAUGGUCAAGCUAUAAUUCUUUGGUGAAUAGGU; value = 0.771
Oligonucleotide = GAAACUUUGCCUUAGGUAGGUGUUGGCCAGAAAAGUCCAGAUUUCUCUGUGACCUCACCCUGGCCUCUCCUGGAGCUCUGAACCUGCUGUGGAAGGAAGUGGCUGUGACU; value = 0.832
Oligonucleotide = GCCUUGGCCACAGGAAGCUGCCGAGACUGGCCAUGUGGCUGGGCUAGGCUGUGCCCUCCCUCUCCCUCAGCGCUGGAAGUCGGGGUGGGGCAGGUUCUGUGGAAGAAGUU; value = 0.639
Oligonucleotide = CUUGCUGUGUACAUCAAGAAAAUUCAGUUGAAUUCUGAGAUUAGCAUGGUUAUUAGCACUUUAUGCUGGGAGCCAGCAGAGUGGUGGACUUCCGUGCUGACUAAGCUGUG; value = 0.277
Oligonucleotide = UCACUGCUUCAGUCAGCCUUCAUUAGCACCAAAGACUCCAUGAAGGUCGUCCCCCACACAAACAUACCCCUUGCGCACCUUCUGCCUACUUUGAGCCGGAUCUGGCCUGU; value = 0.389
Oligonucleotide = CGACAUGUGGCAGACACACAGUAAAUAAUGGCUGACCAGCAUGAGGGCAGUACUGUCAGAAAUUUCUUUGAGCUGUGAGAUGGAUUUAUUUUUAAAUGCUACUUUGUAAA; value = 8.47

Block 3 — technique: universal PBM; molecule type: double-stranded DNA, one strand shown; medium: in vitro; concentration: not given; reading: higher = stronger binding; measurement: E-score
Target: Sal-like protein 4, full length isoform B (SALL4, Homo sapiens, UniProt Q9UJQ4-2, residues 1-616)
Notes: 8-mer, flanks averaged, mean of replicates
Residues (chain): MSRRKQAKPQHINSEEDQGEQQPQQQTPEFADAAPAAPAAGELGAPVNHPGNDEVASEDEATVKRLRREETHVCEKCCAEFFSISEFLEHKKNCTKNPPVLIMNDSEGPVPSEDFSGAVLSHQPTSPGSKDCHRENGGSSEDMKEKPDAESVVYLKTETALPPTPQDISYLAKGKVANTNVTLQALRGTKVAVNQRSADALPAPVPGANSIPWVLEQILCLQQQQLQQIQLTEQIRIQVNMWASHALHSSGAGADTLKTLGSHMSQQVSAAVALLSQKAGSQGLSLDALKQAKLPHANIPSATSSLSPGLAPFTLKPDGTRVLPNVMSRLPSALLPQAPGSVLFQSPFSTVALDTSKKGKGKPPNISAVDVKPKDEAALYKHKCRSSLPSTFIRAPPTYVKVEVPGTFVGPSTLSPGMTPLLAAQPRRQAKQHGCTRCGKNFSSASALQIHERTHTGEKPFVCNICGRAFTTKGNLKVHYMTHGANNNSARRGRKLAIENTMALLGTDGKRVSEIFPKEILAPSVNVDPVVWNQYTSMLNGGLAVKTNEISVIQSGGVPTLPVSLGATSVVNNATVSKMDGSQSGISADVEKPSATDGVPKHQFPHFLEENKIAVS
Oligonucleotide = AGATATGG; value = 0.302
Oligonucleotide = AGATGAAA; value = 0.187
Oligonucleotide = AAAGATCG; value = 0.0428
Oligonucleotide = CCATAGGG; value = -0.0305
Oligonucleotide = ACATGCGT; value = -0.0155
Oligonucleotide = ACTCAAGG; value = -0.106
Oligonucleotide = CCAGAAAG; value = -0.102
Oligonucleotide = GCGAGAAA; value = -0.0265
Oligonucleotide = ATAATTTG; value = 0.394
Oligonucleotide = ATTATTCC; value = 0.19
Oligonucleotide = ATACGAAG; value = 0.174
Oligonucleotide = ACGTTTTG; value = 0.121
Oligonucleotide = CCGAGGCG; value = -0.325
Oligonucleotide = GTGCAAAA; value = 0.12
Oligonucleotide = CCATCGGC; value = -0.263
Oligonucleotide = GGCAAGCA; value = -0.0491
Oligonucleotide = AGTCTGAC; value = -0.131
Oligonucleotide = CGTTAATA; value = 0.263
Oligonucleotide = ATGCCACG; value = -0.123
Oligonucleotide = AAGCAGCA; value = -0.0818
Oligonucleotide = CCAAGCAC; value = -0.0319
Oligonucleotide = GGCTCTTA; value = -0.0215
Oligonucleotide = ACCACGCG; value = -0.209
Oligonucleotide = AGGGCTGG; value = -0.23
Oligonucleotide = CGATATGC; value = 0.066

Block 4 — technique: competition protein-binding microarray; molecule type: double-stranded DNA, one strand shown; medium: in vitro; concentration: 2 µM; with: Cbf1 competitor, 0.05 µM; reading: higher = stronger binding; measurement: fluorescence intensity; shared flanks, not repeated: … GTCTTGATTCGCTTGACGCTGCTG
Target: Phosphate system positive regulatory protein PHO4, full length, GST-tagged (PHO4, Saccharomyces cerevisiae, UniProt P07270, residues 1-312)
Notes: whole 60-bp probe, lowest competitor level
Residues (chain): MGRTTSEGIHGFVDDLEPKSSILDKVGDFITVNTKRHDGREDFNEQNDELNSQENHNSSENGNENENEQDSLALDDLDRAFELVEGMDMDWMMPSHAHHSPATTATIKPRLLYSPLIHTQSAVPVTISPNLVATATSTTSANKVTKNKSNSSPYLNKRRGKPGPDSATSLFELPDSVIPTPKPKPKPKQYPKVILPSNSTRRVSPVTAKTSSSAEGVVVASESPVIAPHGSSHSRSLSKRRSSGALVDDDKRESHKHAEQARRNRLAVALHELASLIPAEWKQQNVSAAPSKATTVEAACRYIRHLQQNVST
Oligonucleotide = CTCAAACACCACATCTGCGTGATGGCCGCCCAAAAG; value = 6460 a.u.
Oligonucleotide = CATACCCAACCTTGTATTGTGGGTGAAGATATTTGT; value = 4430 a.u.
Oligonucleotide = ACTGAAAAAAGCCTGCGCGTGCGGAAACAAAACTGC; value = 11200 a.u.
Oligonucleotide = TATCGTCAATCAACAAGCATGACAGACCAGCAACAT; value = 5630 a.u.
Oligonucleotide = CGGGGTTAAGTTTGTCACTGTACTTGCTTGCAGCAG; value = 3510 a.u.
Oligonucleotide = AAATTACTAAGTTTTCACGTGTGCTACCCCGTATGA; value = 13400 a.u.
Oligonucleotide = GAAATGAGGTTTTAGCACGTGATGGGGAAGCCACAG; value = 17400 a.u.
Oligonucleotide = AAATTACTAAGTTGACGCGTGGGTGACGCCGTATGA; value = 9640 a.u.
Oligonucleotide = CGAAAATAGCTATCGCACGTATCGAATACCAAATCA; value = 6320 a.u.
Oligonucleotide = AAATTACTAAGTTGTCACGCAACTTACCCCGTATGA; value = 5410 a.u.
Oligonucleotide = CCCTTAGACTTGCTGGGCGTGCGATTCAAGGGACAG; value = 8010 a.u.
Oligonucleotide = CGAATGGAGAGCGGCCACGTTGTTAGGGGAGTAACA; value = 14500 a.u.
Oligonucleotide = CGGGGTTAAGTTTGTCACAATACTTGCTTGCAGCAG; value = 3600 a.u.
Oligonucleotide = ACTGGTAAGCACCGTCACGCTAAAGTCCATTTGGTT; value = 4670 a.u.
Oligonucleotide = CATACCCAACCTTTTCACGTGTCATAAGATATTTGT; value = 13100 a.u.
Oligonucleotide = CTAACGAAGGTTTGTCACTGAACTTACAAGCCAAGT; value = 3050 a.u.
Oligonucleotide = CACACCAAAAGAGTGTGCGTGTCCTGTCATTCGAGT; value = 9490 a.u.
Oligonucleotide = AAACCAATTGGTCGGCACGTTCTGGCAAATGCGTCC; value = 13900 a.u.
Oligonucleotide = CTAACGAAGGTTTGGATAGTGGGTGACAAGCCAAGT; value = 3490 a.u.
Oligonucleotide = TTCTTAATTTTTTTGCACGTTTTTCAGCTTCTGGTT; value = 13700 a.u.
Oligonucleotide = CTAACGAAGGTTTTTCACGTGTGTTACAAGCCAAGT; value = 13100 a.u.
Oligonucleotide = GGTCTAAACCCATCTCACGTTCCCTATTAGTGGGTG; value = 10700 a.u.
Oligonucleotide = CTAACGAAGGTTTGTATAGTGGGTGACAAGCCAAGT; value = 3270 a.u.
Oligonucleotide = CGGGGTTAAGTTTGGATGGTGGGTGGCTTGCAGCAG; value = 4950 a.u.

A few entries again (block 3):
Oligonucleotide = CCAGAAAG; value = -0.102
Oligonucleotide = CCATAGGG; value = -0.0305
Oligonucleotide = AAGCAGCA; value = -0.0818
Oligonucleotide = CGATATGC; value = 0.066
Oligonucleotide = ATGCCACG; value = -0.123
Oligonucleotide = GTGCAAAA; value = 0.12
Oligonucleotide = AGTCTGAC; value = -0.131
Oligonucleotide = AGATGAAA; value = 0.187
